Assay results pooled from the literature.
Parts stem from different laboratories: compare values within a part only.

Sample 1 — technique: protein binding microarray; molecule type: double-stranded DNA, one strand shown; medium: in vitro; tested at: not given; reference: not given; reading: higher = stronger binding
Target: Histone acetyltransferase KAT6A, winged helix 2, GST fusion (KAT6A, Homo sapiens, UniProt Q92794, residues 85-181)
Setting: 8-mer, flanks averaged, mean of 2 arrays, mostly near background
Target sequence (chain): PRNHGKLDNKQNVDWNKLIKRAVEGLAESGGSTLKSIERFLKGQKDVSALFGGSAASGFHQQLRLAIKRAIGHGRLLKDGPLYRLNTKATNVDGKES
`AGCCTCTC` gave an E-score of -0.165.
With `GGTGGCTA` the E-score was -0.0396.
With `CGGTCTCC` the E-score was 0.0677.
The E-score of `ATCCCAAA` is reported as 0.138.
With `AACAGCAT` the E-score was -0.0245.
For `CTGGCGGA`, the E-score was 0.0142.

Sample 2 — technique: RNA Bind-n-Seq; molecule type: RNA; medium: in vitro; tested at: 20 nM; setting: 6-mer, flanks averaged, single round; with: 150 mM LiCl; reference: input library; reading: higher = stronger binding
Target: TAR DNA-binding protein 43, full length, His tag (TARDBP, Homo sapiens, UniProt Q13148, residues 1-414)
For `AUCAUC`, “6-mer enrichment (R)” read 0.808.
Under “6-mer enrichment (R)”, `UAGAAC` is recorded as 1.05.
`AAAGGA` — result for “6-mer enrichment (R)”: 0.85.
`UGUCGA` — result for “6-mer enrichment (R)”: 0.972.
`CGGCCG`: “6-mer enrichment (R)” 0.944.
`CAGCUA` — result for “6-mer enrichment (R)”: 0.854.
Under “6-mer enrichment (R)”, `GUUAAA` is recorded as 0.953.
`CGCUAU` — result for “6-mer enrichment (R)”: 0.897.

Sample 3 — technique: RNA Bind-n-Seq; molecule type: RNA; medium: in vitro; tested at: 1 µM; setting: whole 134-nt RNA, ends assumed; with: 150 mM KCl; reference: input library; reading: higher = stronger binding
Target: Ras GTPase-activating protein-binding protein 1, RRM domain (G3BP1, Homo sapiens, UniProt Q13283)
UniProt Q13283, sequence (whole entry, looked up): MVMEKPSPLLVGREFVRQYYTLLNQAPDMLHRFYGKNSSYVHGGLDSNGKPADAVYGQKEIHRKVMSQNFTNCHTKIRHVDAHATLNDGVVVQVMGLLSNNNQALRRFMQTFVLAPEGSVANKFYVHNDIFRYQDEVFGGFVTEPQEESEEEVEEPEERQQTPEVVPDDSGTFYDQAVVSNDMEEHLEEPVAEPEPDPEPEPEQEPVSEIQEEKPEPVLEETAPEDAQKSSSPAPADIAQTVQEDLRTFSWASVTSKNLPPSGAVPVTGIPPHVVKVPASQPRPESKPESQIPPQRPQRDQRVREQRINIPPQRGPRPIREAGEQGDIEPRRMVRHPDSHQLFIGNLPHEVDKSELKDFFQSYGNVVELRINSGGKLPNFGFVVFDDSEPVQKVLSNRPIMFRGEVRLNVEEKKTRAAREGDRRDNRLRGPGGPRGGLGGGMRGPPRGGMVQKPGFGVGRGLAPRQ
For `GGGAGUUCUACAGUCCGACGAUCCCUCAAGUCCUGUGCUACACAUCGUAUGUACCGAAUCGGGGAGGGAGGAGGGAAAGUAUUAUGUUACGCCGUUCGGAUCUGCACUUCCAGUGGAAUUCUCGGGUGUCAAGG`, the log2 enrichment was 0.00321.
The log2 enrichment of `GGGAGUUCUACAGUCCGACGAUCUGGGAGGUGGAUUUUGUUUAUUUUUUUAGCUCAUUUCCAGGGGUGGGAAUUUUUUUUUAAUAUUUGUCAUGAAUAAAGUUGUUUUUGAAAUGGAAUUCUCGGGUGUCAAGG` is reported as 1.34.
`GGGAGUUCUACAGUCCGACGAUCUGGCCCUGGUGGCAUGCGGGGAGGAAGAGGUGCCCUCAUGGAUCGUGGUGGUCCCGGUGGAAUGUUCAGAGGUGGCCGUGGUGGAGACAGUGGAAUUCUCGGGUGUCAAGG` gave a log2 enrichment of 0.685.
For `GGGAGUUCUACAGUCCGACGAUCGCAGGAAAUAAAAACAAAUGGAAAUGCUUCGGAUAGUGGCAGGGGUGGGGGUUGCUAAGGAAAGGGUGGGAUGGGAGUGGGUAAAGAGUUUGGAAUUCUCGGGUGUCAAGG`, the log2 enrichment was 1.22.
The log2 enrichment of `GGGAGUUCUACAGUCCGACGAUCUGUAGAAAAGGCACUGGACUAACACUUGGCUGUAUCUUGUAACAGGCAUGUUAUGUUACCCAGAGAACUUUCCAAACAAGUACCUAAAACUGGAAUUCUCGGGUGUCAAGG` is reported as -0.0731.
`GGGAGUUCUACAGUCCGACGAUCUGGGCUGGAUGGCUCAGUUCCCCCAGACCUGGACUGGAAGGGCCAGCCACCUGCACCUCCUAAAAAGGGACUGCUGCAGAGACUCUUCAGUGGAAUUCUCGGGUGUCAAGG` gave a log2 enrichment of -0.423.

Single results of other studies
`PhoQ, residues 284 288 289 292 302 303 SSLVEF` has a fold induction of 1.8 (PhoP, residues 12 14 15 18 19 NFCKL (Escherichia coli, UniProt P23836); Sort-seq, item: YFP reporter; E. coli; PhoQ-PhoP variant library, with: 10 µM Mg2+; reference: high Mg2+ state, higher = stronger signaling).

Excerpt of the above (sample 2):
`AAAGGA` — result for “6-mer enrichment (R)”: 0.85.
`UGUCGA` — result for “6-mer enrichment (R)”: 0.972.
`CGGCCG`: “6-mer enrichment (R)” 0.944.
`CAGCUA` — result for “6-mer enrichment (R)”: 0.854.
